# Published values pooled from the literature.
# Compare with care: the assays were run in different laboratories. Numbers after ± are the reported error.
# CHRM1: Muscarinic acetylcholine receptor M1 (CHRM1, Homo sapiens, UniProt P11229)
# Chain of UniProt P11229 (whole entry, looked up): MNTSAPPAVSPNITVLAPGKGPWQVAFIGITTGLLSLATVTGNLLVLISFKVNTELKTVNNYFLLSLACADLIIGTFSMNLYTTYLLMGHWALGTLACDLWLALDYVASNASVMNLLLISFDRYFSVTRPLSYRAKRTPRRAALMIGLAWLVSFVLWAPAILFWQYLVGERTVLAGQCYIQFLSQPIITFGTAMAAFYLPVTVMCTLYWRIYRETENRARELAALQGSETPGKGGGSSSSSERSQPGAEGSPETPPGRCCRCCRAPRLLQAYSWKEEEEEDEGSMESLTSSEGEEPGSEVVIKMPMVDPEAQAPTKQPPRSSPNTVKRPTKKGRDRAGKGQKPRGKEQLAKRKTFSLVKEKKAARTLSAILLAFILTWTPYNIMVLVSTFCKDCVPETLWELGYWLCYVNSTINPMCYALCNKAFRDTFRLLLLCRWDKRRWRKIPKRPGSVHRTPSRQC
# Chain of UniProt Q59490 (whole entry, looked up): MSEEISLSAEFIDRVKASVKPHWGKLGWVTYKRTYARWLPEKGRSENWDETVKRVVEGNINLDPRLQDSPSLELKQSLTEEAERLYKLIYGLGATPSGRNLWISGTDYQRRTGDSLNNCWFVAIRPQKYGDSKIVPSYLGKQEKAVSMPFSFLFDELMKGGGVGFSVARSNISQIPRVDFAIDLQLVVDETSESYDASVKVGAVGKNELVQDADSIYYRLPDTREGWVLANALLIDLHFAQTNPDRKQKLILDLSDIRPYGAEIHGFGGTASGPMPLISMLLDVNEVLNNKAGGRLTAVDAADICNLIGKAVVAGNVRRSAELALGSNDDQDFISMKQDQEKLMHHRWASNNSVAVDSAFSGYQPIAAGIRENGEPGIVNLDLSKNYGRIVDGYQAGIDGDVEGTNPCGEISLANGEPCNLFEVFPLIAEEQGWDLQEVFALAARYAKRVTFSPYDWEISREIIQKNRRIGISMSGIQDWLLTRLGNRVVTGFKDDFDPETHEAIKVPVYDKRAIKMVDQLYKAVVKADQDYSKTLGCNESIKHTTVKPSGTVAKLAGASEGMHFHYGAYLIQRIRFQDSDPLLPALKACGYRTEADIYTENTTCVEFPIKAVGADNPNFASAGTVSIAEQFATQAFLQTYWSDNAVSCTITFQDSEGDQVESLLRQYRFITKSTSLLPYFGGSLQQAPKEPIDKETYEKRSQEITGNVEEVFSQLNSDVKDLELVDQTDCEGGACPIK
# Chain of UniProt P00784 (whole entry, looked up): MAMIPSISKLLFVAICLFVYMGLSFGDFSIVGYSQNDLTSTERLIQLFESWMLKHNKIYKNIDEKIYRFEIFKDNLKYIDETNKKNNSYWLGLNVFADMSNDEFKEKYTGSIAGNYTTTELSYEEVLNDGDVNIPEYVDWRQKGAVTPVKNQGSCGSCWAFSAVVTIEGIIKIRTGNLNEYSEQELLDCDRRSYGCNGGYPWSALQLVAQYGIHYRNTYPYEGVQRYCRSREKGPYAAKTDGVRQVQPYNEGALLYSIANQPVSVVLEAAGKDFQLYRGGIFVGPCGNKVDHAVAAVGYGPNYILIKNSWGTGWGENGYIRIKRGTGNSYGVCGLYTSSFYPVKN
# Chain of UniProt Q92731 (whole entry, looked up): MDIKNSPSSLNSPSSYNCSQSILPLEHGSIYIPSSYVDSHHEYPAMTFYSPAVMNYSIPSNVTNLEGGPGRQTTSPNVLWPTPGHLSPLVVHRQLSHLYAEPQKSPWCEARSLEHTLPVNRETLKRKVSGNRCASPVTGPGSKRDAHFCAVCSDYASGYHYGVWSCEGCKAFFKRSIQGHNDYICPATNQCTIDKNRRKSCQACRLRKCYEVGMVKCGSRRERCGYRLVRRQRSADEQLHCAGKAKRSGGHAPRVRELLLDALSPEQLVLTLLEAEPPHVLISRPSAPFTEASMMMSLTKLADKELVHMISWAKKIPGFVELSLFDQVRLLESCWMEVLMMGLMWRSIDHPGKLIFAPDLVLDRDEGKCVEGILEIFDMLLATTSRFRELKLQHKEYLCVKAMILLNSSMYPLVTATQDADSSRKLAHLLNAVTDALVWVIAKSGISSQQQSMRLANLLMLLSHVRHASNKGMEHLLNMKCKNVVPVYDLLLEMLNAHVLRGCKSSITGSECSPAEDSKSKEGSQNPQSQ
# Chain of UniProt Q9Y5Y9 (whole entry, looked up): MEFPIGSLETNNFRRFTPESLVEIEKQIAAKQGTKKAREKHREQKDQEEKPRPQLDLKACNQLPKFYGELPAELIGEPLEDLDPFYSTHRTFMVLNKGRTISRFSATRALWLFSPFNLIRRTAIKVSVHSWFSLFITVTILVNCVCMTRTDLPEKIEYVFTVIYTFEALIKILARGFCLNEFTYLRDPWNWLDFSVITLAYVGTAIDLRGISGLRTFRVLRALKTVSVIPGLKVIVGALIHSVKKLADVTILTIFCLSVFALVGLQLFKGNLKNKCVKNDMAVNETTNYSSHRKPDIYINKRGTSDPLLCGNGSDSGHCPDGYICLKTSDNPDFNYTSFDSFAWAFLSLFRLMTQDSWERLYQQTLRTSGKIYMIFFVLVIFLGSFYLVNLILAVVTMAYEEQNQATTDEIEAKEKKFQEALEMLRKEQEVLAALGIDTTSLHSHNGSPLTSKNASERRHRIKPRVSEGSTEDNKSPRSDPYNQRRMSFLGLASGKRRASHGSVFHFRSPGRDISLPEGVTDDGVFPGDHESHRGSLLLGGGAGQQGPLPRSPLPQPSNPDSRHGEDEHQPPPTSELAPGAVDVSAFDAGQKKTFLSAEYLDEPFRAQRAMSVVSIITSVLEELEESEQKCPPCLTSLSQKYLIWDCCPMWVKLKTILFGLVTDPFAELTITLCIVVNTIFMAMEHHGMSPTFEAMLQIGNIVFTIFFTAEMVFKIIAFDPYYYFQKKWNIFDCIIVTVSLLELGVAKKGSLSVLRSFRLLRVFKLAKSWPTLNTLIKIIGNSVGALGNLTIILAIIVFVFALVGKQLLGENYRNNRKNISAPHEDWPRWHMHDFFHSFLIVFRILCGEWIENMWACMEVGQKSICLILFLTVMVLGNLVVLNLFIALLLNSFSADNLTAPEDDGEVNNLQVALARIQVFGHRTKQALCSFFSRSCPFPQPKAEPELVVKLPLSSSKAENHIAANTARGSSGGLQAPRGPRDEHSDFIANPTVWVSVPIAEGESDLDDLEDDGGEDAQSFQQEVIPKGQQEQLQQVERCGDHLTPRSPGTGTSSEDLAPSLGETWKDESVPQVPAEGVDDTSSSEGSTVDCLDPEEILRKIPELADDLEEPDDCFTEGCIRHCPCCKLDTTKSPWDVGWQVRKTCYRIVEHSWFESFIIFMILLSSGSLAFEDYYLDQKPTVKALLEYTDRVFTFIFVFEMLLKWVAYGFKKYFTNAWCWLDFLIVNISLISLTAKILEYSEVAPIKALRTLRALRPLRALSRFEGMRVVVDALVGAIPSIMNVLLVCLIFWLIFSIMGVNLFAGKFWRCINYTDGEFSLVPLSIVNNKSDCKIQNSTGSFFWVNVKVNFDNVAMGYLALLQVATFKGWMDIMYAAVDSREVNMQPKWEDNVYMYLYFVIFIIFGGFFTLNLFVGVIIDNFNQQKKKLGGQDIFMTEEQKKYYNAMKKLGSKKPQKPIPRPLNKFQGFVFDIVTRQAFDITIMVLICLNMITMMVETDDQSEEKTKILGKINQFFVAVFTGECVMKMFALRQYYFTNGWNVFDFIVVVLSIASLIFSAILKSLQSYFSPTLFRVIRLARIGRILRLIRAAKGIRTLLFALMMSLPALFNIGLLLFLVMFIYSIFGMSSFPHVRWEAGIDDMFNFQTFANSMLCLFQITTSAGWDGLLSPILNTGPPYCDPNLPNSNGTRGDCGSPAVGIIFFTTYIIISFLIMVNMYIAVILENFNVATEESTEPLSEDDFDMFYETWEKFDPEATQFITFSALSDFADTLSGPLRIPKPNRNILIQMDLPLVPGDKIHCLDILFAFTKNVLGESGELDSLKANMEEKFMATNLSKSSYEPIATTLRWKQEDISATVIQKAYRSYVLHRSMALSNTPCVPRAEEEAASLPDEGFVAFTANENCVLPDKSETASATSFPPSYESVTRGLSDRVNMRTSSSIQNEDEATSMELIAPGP
# Chain of UniProt P08173 (whole entry, looked up): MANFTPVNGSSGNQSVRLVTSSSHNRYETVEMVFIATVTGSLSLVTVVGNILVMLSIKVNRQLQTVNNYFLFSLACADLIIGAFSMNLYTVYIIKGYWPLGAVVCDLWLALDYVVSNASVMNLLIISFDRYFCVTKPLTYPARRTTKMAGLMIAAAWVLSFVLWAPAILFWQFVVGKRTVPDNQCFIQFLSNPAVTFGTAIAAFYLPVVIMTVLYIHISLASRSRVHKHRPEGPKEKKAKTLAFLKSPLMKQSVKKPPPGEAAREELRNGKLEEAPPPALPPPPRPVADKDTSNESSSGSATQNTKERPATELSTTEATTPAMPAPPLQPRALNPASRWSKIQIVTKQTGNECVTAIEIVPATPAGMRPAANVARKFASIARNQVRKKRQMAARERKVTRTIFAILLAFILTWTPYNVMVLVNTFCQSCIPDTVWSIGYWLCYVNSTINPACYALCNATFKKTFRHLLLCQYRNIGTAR
# Chain of UniProt Q9EPX4 (whole entry, looked up): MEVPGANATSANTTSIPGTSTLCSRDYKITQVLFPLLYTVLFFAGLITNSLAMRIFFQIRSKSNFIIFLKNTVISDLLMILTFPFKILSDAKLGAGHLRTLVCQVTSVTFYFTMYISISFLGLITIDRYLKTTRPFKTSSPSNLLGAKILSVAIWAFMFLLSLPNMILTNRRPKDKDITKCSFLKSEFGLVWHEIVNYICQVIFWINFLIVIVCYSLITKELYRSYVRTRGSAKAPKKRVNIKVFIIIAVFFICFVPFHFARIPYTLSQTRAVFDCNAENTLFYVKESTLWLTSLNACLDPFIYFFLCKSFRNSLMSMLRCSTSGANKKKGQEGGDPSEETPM
SMILES,target,assay,test system,conditions,scale,quantity,result
COC(=O)c1scc(C)c1NC(=O)C(C)N1CCN(CC2CC2)CC1 (stereo not drawn),"Sodium channel protein type 10 subunit alpha (SCN10A, Homo sapiens, UniProt Q9Y5Y9)",cell membrane chromatography,,,higher = stronger binding,capacity factor k′,115
CCCCn1cc(-c2ccc(COc3ccccc3-c3cc(=O)n(C4CCCCC4O)cn3)cc2)cn1 (stereo not drawn),CHRM1,"allosteric agonist, IP1 accumulation",CHO-M1 cells,"1 µM, unit not given",baseline: maximum ACh response,change in baseline activity,24.7 ± 2.4
O=S(=O)(Nc1ccccc1Cl)C1CC2OC1C(c1ccc(O)cc1)=C2c1ccc(O)cc1 (stereo not drawn),"Estrogen receptor beta (ESR2, Homo sapiens, UniProt Q92731)","reporter gene, antagonist",HepG2,added: estradiol 10 nM,"baseline: E2 response, negative is inverse agonism",efficacy,-5 ± 3%
COc1cc(F)ccc1-c1nc(Nc2nc3ccccc3o2)ncc1C#N,"Metabotropic glutamate receptor 5 (Grm5, Rattus norvegicus, UniProt P31424)","calcium mobilization, negative allosteric modulator",,added: glutamate EC80,baseline: maximal glutamate response,maximal response,1.5 ± 0.4%
Cn1cc(-c2ccc(COc3ccccc3-c3cc(=O)n(C4CCCCC4O)cn3)cc2)cn1 (stereo not drawn),CHRM1,"allosteric agonist, IP1 accumulation",CHO-M1 cells,"10 µM, unit not given",baseline: maximum ACh response,change in baseline activity,85.3 ± 2.4
Cc1nnsc1C(=O)Nc1ccc(-n2nc(C(F)(F)F)cc2C(F)(F)F)cc1,"Short transient receptor potential channel 3 (TRPC3, Homo sapiens, UniProt Q13507)","TRPC3 receptor-operated current, inhibitor, patch clamp",HEK293 transiently expressing TRPC3,"3 µM, added: carbachol maximal activation",,peak current,-1.54 ± 0.53 pA/pF
O=c1cc(-c2ccccc2OCc2ccc(Cl)nc2)ncn1C1CCCCC1O (stereo not drawn),CHRM1,"allosteric agonist, IP1 accumulation",CHO-M1 cells,"10 µM, unit not given",baseline: maximum ACh response,change in baseline activity,41.1 ± 2.4
Nc1ccn([C@@H]2O[C@H](COP(=O)(O)OP(=O)(O)OP(=O)(O)O)[C@@H](O)C2(F)F)c(=O)n1,"Adenosylcobalamin-dependent ribonucleoside-triphosphate reductase (rtpR, Lactobacillus leichmannii, UniProt Q59490)","mechanism-based inactivator, covalent radiolabelling",,"2 min, pH 7.5, 37 °C, added: AdoCbl, dATP, Mg2+",,bound label stoichiometry,0.47 ± 0.02 mol/mol enzyme
O=C(O)[C@H]1O[C@@H](Oc2ccc3c(=O)c(O)c(-c4ccc(O)cc4)oc3c2)[C@H](O)[C@@H](O)[C@@H]1O,"UDP-glucuronosyltransferase 1A1 (UGT1A1, Homo sapiens, UniProt P22309)","glucuronidation, substrate, Supersomes",,,,Vmax,3.55 ± 1.11 nmol/mg/min
CC[C@H](C)[C@H](NC(=O)[C@H](CC(C)C)NC(=O)[C@H](CC(C)C)NC(=O)CNC(=O)[C@H](Cc1ccc(O)cc1)NC(=O)[C@H](CCCNC(=N)N)NC(=O)[C@H](CO)NC(C)=O)C(=O)N[C@@H](CCCCN)C(=O)N[C@@H](C)C(=O)N[C@@H](Cc1ccccc1)C(=O)N[C@@H](CO)C(=O)N[C@@H](CCSC)C(=O)N[C@H](C(=O)N[C@@H](C)C(=O)N[C@@H](C)C(=O)N[C@@H](CCC(=O)O)C(=O)N[C@H](C(=O)N[C@@H](C)C(=O)N[C@@H](CCCNC(=N)N)C(=O)N[C@@H](CCCNC(=N)N)C(=O)N[C@H](C(=O)N[C@@H](CCCNC(=N)N)C(=O)N[C@@H](CCC(=O)O)C(=O)N[C@@H](Cc1ccccc1)C(=O)N[C@@H](CCCNC(=N)N)C(N)=O)[C@@H](C)O)[C@@H](C)O)[C@@H](C)O,calmodulin 76-148 sites III and IV,"calcium binding, Tyr fluorescence titration",,"12 µM, pH 7.4, 22 °C, added: 6 µM calmodulin",,apparent ΔG1,-6.99 ± 0.56 kcal/mol
CS(=O)(=O)c1ccc(COc2ccccc2-c2cc(=O)n(C3CCCCC3O)cn2)cc1 (stereo not drawn),CHRM1,"allosteric agonist, IP1 accumulation",CHO-M1 cells,"1 µM, unit not given",baseline: maximum ACh response,change in baseline activity,11 ± 2.7
COc1ccc(C)c2sc(NC(=O)NCc3ccncc3)nc12,"Muscarinic acetylcholine receptor M4 (CHRM4, Homo sapiens, UniProt P08173)","calcium mobilization, positive allosteric modulator",CHO expressing hM4 and Gqi5,"concentration not given, added: acetylcholine EC20",,activity,inactive
CC(C)C[C@H](N)C(=O)N1CCC[C@@H](NCC(N)=O)C1,"Papain (Carica papaya, UniProt P00784)",inhibitor,,,baseline: Ki papain over Ki IdeS,selectivity ratio,≥ 267 fold
COC(=O)[C@H](c1ccccc1Cl)N1CCc2sccc2C1,"P2Y purinoceptor 12 (P2ry12, Rattus norvegicus, UniProt Q9EPX4)",,rat,"oral, 30 mg/kg",,receptor occupancy,17.3 ± 8.3%
CC[C@H](C)[C@H](NC(=O)[C@H](CCC(=O)O)NC(=O)[C@@H]1CCCN1C(=O)[C@H](CCCNC(=N)N)NC(C)=O)C(=O)N[C@@H](Cc1c[nH]c2ccccc12)C(=O)N[C@@H](Cc1ccc(O)cc1)C(=O)N[C@@H](C)C(=O)N[C@@H](CCC(N)=O)C(=O)NCC(=O)N[C@@H](CC(C)C)C(=O)N[C@@H](CCCCN)C(=O)N[C@@H](CCCNC(=N)N)C(=O)N[C@@H](Cc1ccccc1)C(=O)NCC(=O)N[C@@H](CC(=O)O)C(=O)N[C@@H](CCC(=O)O)C(=O)N[C@@H](Cc1ccccc1)C(=O)N[C@@H](CC(N)=O)C(=O)N[C@@H](C)C(=O)N[C@@H](Cc1ccc(O)cc1)C(=O)N[C@@H](Cc1ccc(O)cc1)C(=O)N[C@@H](C)C(=O)N[C@@H](CCCNC(=N)N)C(N)=O,"Induced myeloid leukemia cell differentiation protein Mcl-1 (MCL1, Homo sapiens, UniProt Q07820)","binding, fluorescence polarization competition",,"50 nM protein, added: 10 nM fluorescein Bim-BH3",no competition up to this value,highest concentration without competition,> 10 µM

# Some of these lines once more:
SMILES,target,assay,test system,conditions,scale,quantity,result
O=C(O)[C@H]1O[C@@H](Oc2ccc3c(=O)c(O)c(-c4ccc(O)cc4)oc3c2)[C@H](O)[C@@H](O)[C@@H]1O,"UDP-glucuronosyltransferase 1A1 (UGT1A1, Homo sapiens, UniProt P22309)","glucuronidation, substrate, Supersomes",,,,Vmax,3.55 ± 1.11 nmol/mg/min
COC(=O)[C@H](c1ccccc1Cl)N1CCc2sccc2C1,"P2Y purinoceptor 12 (P2ry12, Rattus norvegicus, UniProt Q9EPX4)",,rat,"oral, 30 mg/kg",,receptor occupancy,17.3 ± 8.3%
